Published values gathered from unrelated publications.
A part holds a random share of what one study measured. Values joined by “and” are separate records of one study, mostly repeats; a detail may differ.
Sequence of UniProt P10721 (whole entry, unmodified, looked up): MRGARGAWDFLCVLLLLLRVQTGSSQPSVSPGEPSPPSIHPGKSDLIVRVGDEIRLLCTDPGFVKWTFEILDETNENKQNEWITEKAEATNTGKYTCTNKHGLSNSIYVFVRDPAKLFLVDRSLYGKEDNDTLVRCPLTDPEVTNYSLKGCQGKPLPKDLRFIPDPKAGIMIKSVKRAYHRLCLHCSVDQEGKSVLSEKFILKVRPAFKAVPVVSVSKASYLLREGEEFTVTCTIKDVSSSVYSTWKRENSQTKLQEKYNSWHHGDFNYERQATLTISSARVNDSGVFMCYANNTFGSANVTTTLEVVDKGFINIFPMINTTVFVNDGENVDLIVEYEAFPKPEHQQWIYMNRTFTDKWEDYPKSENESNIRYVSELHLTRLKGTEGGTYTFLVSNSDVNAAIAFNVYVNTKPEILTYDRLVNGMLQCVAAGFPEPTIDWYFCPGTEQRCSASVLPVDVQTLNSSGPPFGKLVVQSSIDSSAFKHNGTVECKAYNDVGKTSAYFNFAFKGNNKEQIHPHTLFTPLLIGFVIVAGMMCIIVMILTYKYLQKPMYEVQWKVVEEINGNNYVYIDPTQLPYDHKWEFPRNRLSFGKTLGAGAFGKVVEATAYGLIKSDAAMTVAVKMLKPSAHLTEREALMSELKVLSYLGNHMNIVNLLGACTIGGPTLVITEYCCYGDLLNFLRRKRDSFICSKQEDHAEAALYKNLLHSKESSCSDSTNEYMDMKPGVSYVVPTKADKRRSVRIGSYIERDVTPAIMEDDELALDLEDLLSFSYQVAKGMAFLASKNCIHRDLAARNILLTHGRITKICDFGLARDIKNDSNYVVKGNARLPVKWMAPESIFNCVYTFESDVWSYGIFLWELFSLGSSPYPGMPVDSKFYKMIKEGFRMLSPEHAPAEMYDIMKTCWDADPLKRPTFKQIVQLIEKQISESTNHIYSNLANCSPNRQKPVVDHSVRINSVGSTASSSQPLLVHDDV
Sequence of UniProt Q07912 (whole entry, looked up): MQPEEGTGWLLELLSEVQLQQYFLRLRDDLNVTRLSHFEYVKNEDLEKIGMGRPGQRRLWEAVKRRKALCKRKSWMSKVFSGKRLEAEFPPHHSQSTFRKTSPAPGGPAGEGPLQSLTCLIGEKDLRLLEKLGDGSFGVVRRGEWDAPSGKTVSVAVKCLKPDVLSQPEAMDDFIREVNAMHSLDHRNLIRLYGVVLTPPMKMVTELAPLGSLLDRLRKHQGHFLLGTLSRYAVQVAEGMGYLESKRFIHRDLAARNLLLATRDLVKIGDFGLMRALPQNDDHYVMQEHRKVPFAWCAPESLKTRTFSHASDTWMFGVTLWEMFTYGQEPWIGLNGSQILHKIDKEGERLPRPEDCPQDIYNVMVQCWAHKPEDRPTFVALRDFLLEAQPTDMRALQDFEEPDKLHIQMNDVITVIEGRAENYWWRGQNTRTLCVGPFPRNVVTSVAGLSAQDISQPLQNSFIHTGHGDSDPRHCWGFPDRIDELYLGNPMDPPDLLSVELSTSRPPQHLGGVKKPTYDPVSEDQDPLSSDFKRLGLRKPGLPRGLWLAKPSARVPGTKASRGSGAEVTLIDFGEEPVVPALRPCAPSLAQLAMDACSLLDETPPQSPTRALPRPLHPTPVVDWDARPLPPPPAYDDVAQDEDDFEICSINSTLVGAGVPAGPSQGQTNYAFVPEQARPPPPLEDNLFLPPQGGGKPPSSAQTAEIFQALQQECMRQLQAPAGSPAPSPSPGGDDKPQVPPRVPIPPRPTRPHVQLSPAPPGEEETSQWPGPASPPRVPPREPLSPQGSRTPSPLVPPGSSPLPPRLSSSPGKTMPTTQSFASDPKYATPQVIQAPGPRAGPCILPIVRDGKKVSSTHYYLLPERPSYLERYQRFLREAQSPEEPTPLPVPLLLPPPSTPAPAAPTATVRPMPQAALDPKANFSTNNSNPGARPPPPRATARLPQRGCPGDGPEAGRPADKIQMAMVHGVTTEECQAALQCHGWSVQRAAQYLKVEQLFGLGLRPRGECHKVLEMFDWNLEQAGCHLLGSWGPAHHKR
Sequence of UniProt P00519 (whole entry, looked up): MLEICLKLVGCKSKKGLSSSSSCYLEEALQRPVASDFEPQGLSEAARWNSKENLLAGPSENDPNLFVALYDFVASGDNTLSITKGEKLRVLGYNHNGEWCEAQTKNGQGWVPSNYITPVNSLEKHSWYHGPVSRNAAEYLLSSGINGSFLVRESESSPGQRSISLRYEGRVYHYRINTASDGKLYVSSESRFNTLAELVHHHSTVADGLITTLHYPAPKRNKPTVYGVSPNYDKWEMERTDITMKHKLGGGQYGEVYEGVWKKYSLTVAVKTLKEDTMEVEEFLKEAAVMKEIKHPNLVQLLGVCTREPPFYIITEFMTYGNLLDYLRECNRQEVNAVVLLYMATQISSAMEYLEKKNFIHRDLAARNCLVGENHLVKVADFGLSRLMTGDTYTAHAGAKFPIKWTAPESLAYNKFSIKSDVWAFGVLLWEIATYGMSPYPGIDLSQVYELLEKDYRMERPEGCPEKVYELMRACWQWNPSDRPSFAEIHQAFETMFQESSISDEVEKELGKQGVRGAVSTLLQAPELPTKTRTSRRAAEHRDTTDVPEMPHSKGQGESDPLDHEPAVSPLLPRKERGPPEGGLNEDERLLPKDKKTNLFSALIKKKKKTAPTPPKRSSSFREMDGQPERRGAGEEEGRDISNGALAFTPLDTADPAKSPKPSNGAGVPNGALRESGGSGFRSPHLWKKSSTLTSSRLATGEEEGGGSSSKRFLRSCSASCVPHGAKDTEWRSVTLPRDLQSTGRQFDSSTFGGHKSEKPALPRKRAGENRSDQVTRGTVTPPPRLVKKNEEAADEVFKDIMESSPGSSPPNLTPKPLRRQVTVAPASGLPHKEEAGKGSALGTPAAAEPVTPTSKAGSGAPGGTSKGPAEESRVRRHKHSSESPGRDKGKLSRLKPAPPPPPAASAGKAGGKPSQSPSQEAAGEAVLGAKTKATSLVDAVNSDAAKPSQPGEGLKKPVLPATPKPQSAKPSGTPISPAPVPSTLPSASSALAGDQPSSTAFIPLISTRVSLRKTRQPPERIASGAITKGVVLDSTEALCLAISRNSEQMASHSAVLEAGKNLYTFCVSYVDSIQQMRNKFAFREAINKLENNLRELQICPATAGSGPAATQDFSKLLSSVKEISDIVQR
Sequence of UniProt Q05655 (whole entry, looked up): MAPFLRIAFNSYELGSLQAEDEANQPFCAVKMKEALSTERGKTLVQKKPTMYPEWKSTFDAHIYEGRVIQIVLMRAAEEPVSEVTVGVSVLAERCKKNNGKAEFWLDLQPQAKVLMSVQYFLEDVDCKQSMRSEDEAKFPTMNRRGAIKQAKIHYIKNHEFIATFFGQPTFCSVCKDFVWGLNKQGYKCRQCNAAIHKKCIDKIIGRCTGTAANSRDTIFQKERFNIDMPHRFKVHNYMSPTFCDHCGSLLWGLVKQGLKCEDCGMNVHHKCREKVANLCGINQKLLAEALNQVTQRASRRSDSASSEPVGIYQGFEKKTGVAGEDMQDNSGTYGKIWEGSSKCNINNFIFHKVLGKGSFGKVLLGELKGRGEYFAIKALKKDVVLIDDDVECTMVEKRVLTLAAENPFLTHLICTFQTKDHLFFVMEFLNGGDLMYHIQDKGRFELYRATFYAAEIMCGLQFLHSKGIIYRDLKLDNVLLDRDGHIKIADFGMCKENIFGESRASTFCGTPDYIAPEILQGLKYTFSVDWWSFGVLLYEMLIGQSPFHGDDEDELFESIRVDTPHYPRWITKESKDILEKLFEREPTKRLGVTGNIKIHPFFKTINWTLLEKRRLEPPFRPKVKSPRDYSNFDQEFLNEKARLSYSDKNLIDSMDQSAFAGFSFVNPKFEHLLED
Sequence of UniProt P31749 (whole entry, looked up): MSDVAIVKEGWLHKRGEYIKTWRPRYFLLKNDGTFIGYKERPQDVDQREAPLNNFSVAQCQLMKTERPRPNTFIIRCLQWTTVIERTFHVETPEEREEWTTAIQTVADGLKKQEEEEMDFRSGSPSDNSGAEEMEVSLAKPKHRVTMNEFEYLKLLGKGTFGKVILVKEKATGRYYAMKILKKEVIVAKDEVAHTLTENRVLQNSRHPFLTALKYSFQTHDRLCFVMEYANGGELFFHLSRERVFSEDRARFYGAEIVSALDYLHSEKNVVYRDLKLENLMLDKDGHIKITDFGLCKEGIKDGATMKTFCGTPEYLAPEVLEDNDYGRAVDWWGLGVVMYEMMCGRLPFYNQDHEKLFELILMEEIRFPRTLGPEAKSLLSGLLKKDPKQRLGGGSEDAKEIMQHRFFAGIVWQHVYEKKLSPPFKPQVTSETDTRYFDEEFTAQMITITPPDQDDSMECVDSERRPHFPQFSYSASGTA
Sequence of UniProt P51812 (whole entry, looked up): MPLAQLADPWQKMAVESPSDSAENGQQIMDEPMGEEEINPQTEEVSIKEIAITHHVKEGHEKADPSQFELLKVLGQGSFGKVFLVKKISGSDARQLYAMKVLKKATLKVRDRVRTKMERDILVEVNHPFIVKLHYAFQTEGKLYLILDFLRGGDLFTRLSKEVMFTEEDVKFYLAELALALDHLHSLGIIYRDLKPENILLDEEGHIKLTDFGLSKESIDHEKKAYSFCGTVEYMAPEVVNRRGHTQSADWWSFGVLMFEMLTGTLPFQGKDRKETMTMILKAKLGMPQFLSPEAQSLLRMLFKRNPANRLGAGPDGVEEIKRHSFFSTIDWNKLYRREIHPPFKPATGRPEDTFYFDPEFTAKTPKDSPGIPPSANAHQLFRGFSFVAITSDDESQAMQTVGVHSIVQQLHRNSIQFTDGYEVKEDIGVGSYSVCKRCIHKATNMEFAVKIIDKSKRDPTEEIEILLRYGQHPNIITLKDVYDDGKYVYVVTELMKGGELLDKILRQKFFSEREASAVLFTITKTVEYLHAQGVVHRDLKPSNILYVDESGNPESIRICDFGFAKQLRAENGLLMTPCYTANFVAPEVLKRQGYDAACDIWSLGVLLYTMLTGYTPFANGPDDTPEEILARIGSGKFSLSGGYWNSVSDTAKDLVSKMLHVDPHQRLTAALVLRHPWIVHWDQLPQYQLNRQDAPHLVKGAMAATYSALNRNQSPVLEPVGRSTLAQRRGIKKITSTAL

Series 1
Target: Mitogen-activated protein kinase kinase kinase 2 (MAP3K2, Homo sapiens, UniProt Q9Y2U5)
Observed: enzyme activity
Action: inhibitor
Tested at: 0.5 µM
Baseline: control
Target sequence (Q9Y2U5 1-619): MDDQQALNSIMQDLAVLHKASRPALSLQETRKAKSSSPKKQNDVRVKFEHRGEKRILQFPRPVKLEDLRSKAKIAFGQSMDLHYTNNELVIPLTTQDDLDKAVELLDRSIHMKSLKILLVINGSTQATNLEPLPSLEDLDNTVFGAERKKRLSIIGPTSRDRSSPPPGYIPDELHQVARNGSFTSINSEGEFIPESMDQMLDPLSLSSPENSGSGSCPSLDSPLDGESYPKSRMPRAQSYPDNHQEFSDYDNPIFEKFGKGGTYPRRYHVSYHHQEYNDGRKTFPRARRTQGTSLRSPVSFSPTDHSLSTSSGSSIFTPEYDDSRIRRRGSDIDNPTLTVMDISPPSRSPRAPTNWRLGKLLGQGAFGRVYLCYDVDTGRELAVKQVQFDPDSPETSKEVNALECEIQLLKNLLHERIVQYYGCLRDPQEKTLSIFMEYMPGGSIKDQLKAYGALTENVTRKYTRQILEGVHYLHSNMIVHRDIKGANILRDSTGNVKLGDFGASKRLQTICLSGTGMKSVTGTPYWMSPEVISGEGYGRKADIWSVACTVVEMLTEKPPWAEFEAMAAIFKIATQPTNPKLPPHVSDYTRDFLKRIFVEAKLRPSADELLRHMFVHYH
`Nc1ccc2ncnc(NCCc3ccc(Oc4ccccc4)cc3)c2c1` has a remaining activity of 98.4%.
For `COc1ccc(CNC(=O)Nc2ncc([N+](=O)[O-])s2)cc1`, the remaining activity was 94.1%.
The remaining activity of `Nc1ncnc2n[nH]c(Nc3ccc(F)cc3)c12` is reported as 95.6%.
`O=C1NC(=O)C(c2cn(CCCO)c3ncccc23)=C1c1cnccn1` has a remaining activity of 96.9%.
`C#Cc1cccc(Nc2ncnc3cc(OCCOC)c(OCCOC)cc23)c1` has a remaining activity of 117%.
With `O=C(O)c1ccc2c3c1cccc3c(=O)n1c3ccccc3nc21` the remaining activity was 90.7%.
`CN(C)c1ccc(C=C2C(=O)Nc3ccccc32)cc1` has a remaining activity of 99.8%.
`Cn1c2ccccc2c2c3c(c4c5ccccc5n(CCC#N)c4c21)CNC3=O` has a remaining activity of 2.96%.
`O=C1NC(=O)C(c2cn(CCCn3ccnc3)c3ccccc23)=C1Nc1ccccc1` has a remaining activity of 83.3%.
With `COc1ccc(C(=O)Nc2sc3c(c2C(N)=O)CCCC3)cc1OC` the remaining activity was 105%.
The remaining activity of `COc1cc2nccc(Oc3ccc(NC(=S)NC(=O)c4ccccc4C)cc3)c2cc1OC` is reported as 83.1%.
`O=C(Nc1cccc(Nc2cc(Nc3cccc(C(F)(F)F)c3)ncn2)c1)C1CC1` gave a remaining activity of 91.8%.
`Cn1sc(=O)n(Cc2ccccc2)c1=O` gave a remaining activity of 94.7%.
The remaining activity of `COc1cc2ncnc(Nc3ccc(F)c(Cl)c3)c2cc1OCCCN1CCOCC1` is reported as 109%.
`Cc1ccc(Nc2nccc(N(C)c3ccc4c(C)n(C)nc4c3)n2)cc1S(N)(=O)=O` gave a remaining activity of 110%.
With `OCC(O)CCON=C1C(c2c(O)[nH]c3ccccc23)=Nc2ccccc21` (stereo not shown) the remaining activity was 60.6%.

Series 2
Cell line: mouse MPNST tumor cells
Technique: high-content nuclear imaging
Measured: cell number
Tested at: 10 µM
Time: 12 h
Notes: mean of 2 replicates
Baseline: plate mean
Direction: higher = more cells
With `COc1cc2c(cc1O)CC[C@@H]1[C@@H]2CC[C@]2(C)[C@@H](O)CC[C@@H]12` the nuclei count was -4.66 z-score.
With `CCN(CC)CC1CCCCN1CC(=O)N1c2ccccc2C(=O)Nc2cccnc21` (stereo not shown) the nuclei count was 1.63 z-score.
`C[C@]12CCC(=O)C=C1CC[C@@H]1[C@@H]2C(=O)C[C@@]2(C)[C@H]1CC[C@]2(O)C(=O)CO` gave a nuclei count of 3.51 z-score.
For `CC(C)C(NC(=O)Cn1c(-c2ccccc2)ncc(N)c1=O)C(=O)c1nnc(C(C)(C)C)o1` (stereo not shown), the nuclei count was 1.46 z-score.
With `Cc1nnc(-c2ccc3occ(-c4ccc([S+](C)[O-])cc4)c3c2)o1` (stereo not shown) the nuclei count was -1.42 z-score.
`c1ccc(-c2cnn3cc(-c4ccc(OCCN5CCOCC5)cc4)cnc23)cc1` has a nuclei count of 3.67 z-score.
The nuclei count of `CCOc1c2c(c(OCC)c3ccccc13)C(=O)N(c1ccc(CC(=O)NS(=O)(=O)c3ccccc3)cc1)C2` is reported as 1.99 z-score.
`Nc1c2ccccc2nc2ccccc12` has a nuclei count of -4.24 z-score.

Series 3
SMILES: COc1ccc(-c2c(Nc3ccccn3)[nH]c3c(C4=CCCCC4)c(-c4ccccc4)nn3c2=O)cc1
Species: human
Sample: plasma
Route: oral
The Cmax was 1710 ng/mL (50 mg once daily, multiple doses, patients).
For LC-MS/MS non-compartmental; 50 mg once daily, cycle 1: Cmax read 1630 ng/mL.
For LC-MS/MS non-compartmental; 200 mg twice daily, cycle 1: Cmax read 12100 ng/mL.
For 200 mg twice daily: Cmax read 13800 ng/mL and 15000 ng/mL.
It gave 1730 ng/mL and 1780 ng/mL for Cmax (LC-MS/MS; 50 mg once daily).
The Cmax was 1550 ng/mL (LC-MS/MS non-compartmental; 200 mg, day -3 of cycle 0, single dose, geometric mean).

Series 4
Compound: CC(C)(O)c1cncc(-c2nc3ccc(F)cc3n2C2CC2)c1
Observed: cell-free assay
Technique: competition with immobilised ligand
Tested at: 1 µM
It gave 100% for remaining binding (Ribosomal protein S6 kinase alpha-3, N-terminal kinase domain (RPS6KA3, Homo sapiens, UniProt P51812)).
For Mast/stem cell growth factor receptor Kit (KIT, Homo sapiens, UniProt P10721, V559D/V654A): remaining binding read 87%.
The remaining binding was 100% (RAC-alpha serine/threonine-protein kinase (AKT1, Homo sapiens, UniProt P31749)).
BDNF/NT-3 growth factors receptor (NTRK2, Homo sapiens, UniProt Q16620) — remaining binding: 100%.
For Tyrosine-protein kinase ABL1, non-phosphorylated (ABL1, Homo sapiens, UniProt P00519): remaining binding read 98%.
Activated CDC42 kinase 1 (TNK2, Homo sapiens, UniProt Q07912) — remaining binding: 100%.
It gave 100% for remaining binding (Protein kinase C delta type (PRKCD, Homo sapiens, UniProt Q05655)).
